Measurements gathered from unrelated publications.
Each line is one published result; not all experiments were run side by side. Numbers after ± are the reported error. Values after ≈ are worked out from the molar mass of the structure shown.
Organism: HIV-1

CCCC(=O)OCSc1ccccc1C(=O)NCCn1ccc(=O)c2cc(F)ccc21 — EC50 (viral replication, measured: reverse transcriptase; human PBMC, 92HT599; 7 days): 2.35 ± 0.38 µM
O=C(N/N=C/c1ccccc1O)c1cnccn1 — EC50 (viral cytopathic effect, MTT; MT4, IIIB): > 40 µM
COC[C@@H](c1ccc(C(F)(F)F)cc1)N1CCN(C2(C)CCN(C(=O)c3c(C)ncnc3C)CC2)C[C@@H]1C — EC90 (viral load; HIV-infected patients; week 2): 0.056 µg/mL (≈ 0.105 µM)
Cc1cccc(CNC(=O)c2cn(CCNC(=O)c3ccccc3Sc3c([N+](=O)[O-])ncn3C)c3cc4c(cc3c2=O)OCO4)n1 — EC50 (viral replication; human PBMC, 92RW009): 15.5 ± 6.43 µM
C/C(=N\N1CCN(Cc2ccccc2Cl)CC1)c1ccc([N+](=O)[O-])cc1 — EC50 (viral cytopathic effect, MTT; MT4, IIIB): > 100 µM
C[C@@H]1O[C@@H](OC[C@H]2O[C@@H](Oc3cc4c(O)cc(O)cc4[o+]c3-c3cc(O)c(O)c(O)c3)[C@H](O)[C@@H](O)[C@@H]2O)[C@H](O)[C@H](O)[C@H]1O — IC50 (viral infection; TZM-bl, BaL (CCR5-tropic); 48 h): 97.5 µM
CCCC(=O)OCSc1ccccc1C(=O)NCCn1ccc(=O)c2cc(Cl)ccc21 — EC50 (virus-induced cytopathic effect, inhibitor, XTT; CEM-SS, RF; 6 days): 1.94 ± 0.22 µM
C/C(=N\Nc1ccc(S(=O)(=O)Nc2ccccc2)cc1[N+](=O)[O-])c1cc(O)ccc1O — EC50 (viral cytopathic effect, MTT; MT4, IIIB): > 28 µM
COc1cc(/C=C/C(=O)O)ccc1O — IC50 (viral infection; TZM-bl, BaL (CCR5-tropic); 48 h): > 100 µM
COc1cnc(-n2cnc(C)n2)c2[nH]cc(C(=O)C(=O)N3CCN(C(=O)c4ccccc4)CC3)c12 — IC50 (viral replication, inhibitor, pseudovirus neutralization; TZM-bl, 398-F1_F6_20; 48 h): 0.372 µM
O=c1c(O[C@@H]2O[C@H](CO)[C@@H](O)[C@H](O)[C@H]2O)c(-c2ccc(O)c(O)c2)oc2cc(O)cc(O)c12 — IC50 (viral infection; TZM-bl, BaL (CCR5-tropic); 48 h): > 100 µM
O=C(N/N=C/c1cccnc1)C1=NNC2CCCCC12 (stereo not drawn) — EC50 (viral cytopathic effect, MTT; MT4, IIIB): > 20 µM
OC[C@H]1O[C@@H](O[C@H]2[C@H](Oc3cc4c(O)cc(O)cc4[o+]c3-c3ccc(O)c(O)c3)O[C@H](CO)[C@@H](O)[C@@H]2O)[C@H](O)[C@@H](O)[C@@H]1O — IC50 (viral infection; TZM-bl, NL4-3 (CXCR4-tropic); 48 h): 53.3 µM
CCCC(=O)OCSc1ccccc1C(=O)NCCn1ccc(=O)c2cc(C)ccc21 — EC50 (virus-induced cytopathic effect, inhibitor, XTT; CEM-SS, RF; 6 days): 0.85 ± 1.46 µM
O=c1c(O[C@@H]2O[C@H](CO)[C@@H](O)[C@H](O)[C@H]2O)c(-c2ccc(O)cc2)oc2cc(O)cc(O)c12 — IC50 (viral infection; TZM-bl, BaL (CCR5-tropic); 48 h): > 100 µM
CCCC(=O)OCSc1ccccc1C(=O)NCCn1cc(C(=O)NCc2ccc(C)cn2)c(=O)c2cc3c(cc21)OCO3 — EC50 (virus-induced cytopathic effect, inhibitor, XTT; CEM-SS, RF; 6 days): 0.67 ± 0.08 µM
COc1ccc(-c2ccc(Cc3cnc(Nc4ccc(C#N)cc4)o3)cc2)cc1 — antiviral activity (protection from infection; MT-2, IIIB wild type; concentration not given): inactive
CCCC(=O)OCSc1ccccc1C(=O)NCCCn1ccc(=O)c2cc3c(cc21)OCO3 — EC50 (virus-induced cytopathic effect, inhibitor, XTT; CEM-SS, RF; 6 days): 1.93 ± 0.98 µM
COc1ccnc2[nH]cc(C(=O)C(=O)N3CCN(C(=O)c4ccccc4)C[C@H]3C)c12 — IC50 (viral replication, inhibitor, pseudovirus neutralization; TZM-bl, 3718.v3.c11; 48 h): 0.378 µM
CCCC(=O)OCSc1ccccc1C(=O)NCCn1ccc(=O)c2cc3c(cc21)OCO3 — EC50 (viral replication, measured: reverse transcriptase; human PBMC, 92HT599; 7 days): 0.47 ± 0.11 µM
O=C(N/N=C/c1c(O)ccc2ccccc12)c1cc[nH]n1 — EC50 (viral cytopathic effect, MTT; MT4, IIIB): > 14 µM
OC[C@H]1O[C@@H](Oc2cc3c(O)cc(O)cc3[o+]c2-c2ccc(O)c(O)c2)[C@H](O)[C@@H](O)[C@H]1O — IC50 (viral infection; TZM-bl, NL4-3 (CXCR4-tropic); 48 h): 56 µM
O=C(N/N=C/c1c(O)ccc2ccccc12)c1n[nH]c2c1CCC2 — EC50 (viral cytopathic effect, MTT; MT4, IIIB): > 17 µM
O=C(/C=C/c1ccc(O)c(O)c1)O[C@H]1[C@H](O)C[C@](O)(C(=O)O)C[C@H]1O — IC50 (viral infection; TZM-bl, NL4-3 (CXCR4-tropic); 48 h): > 100 µM
